# Published values from different studies.
# ± gives the spread as reported.
SMILES,assay,test system,setting,how to read,endpoint,value
CC(=O)N(O)CCCCCNC(=O)CCC(=O)N(O)CCCCCNC(=O)CCC(=O)N(O)CCCCCNC(=S)Nc1ccc(NC(=S)NCCC(=O)N[C@H](CC(=O)O)C(=O)N[C@H](CC(=O)O)C(=O)NCCC(=O)N[C@H](CC(=O)O)C(=O)N[C@H](CC(=O)O)C(=O)NCCC(=O)N[C@H](CC(=O)O)C(=O)N[C@H](CC(=O)O)C(=O)NCCC(=O)N[C@H](CC(=O)O)C(=O)N[C@H](CC(=O)O)C(N)=O)cc1 [zirconium-89 labelled],,"BALB/cJ mice, blood","intravenous, 20 µg",,terminal half-life,31.8 min
C/C=C(/C)C(=O)O[C@H]1C(C)=C2[C@H]([C@@H]1OC(=O)CCCCCCC)[C@@](C)(OC(C)=O)C[C@H](OC(=O)CCCCCCCCCCCNC(=O)C[C@H](N)C(=O)N[C@@H](CCC(=O)N[C@@H](CCC(=O)N[C@@H](CCC(=O)N[C@@H](CCC(=O)O)C(=O)O)C(=O)O)C(=O)O)C(=O)O)[C@@]1(O)[C@H]2OC(=O)[C@@]1(C)O,,human patients,"intravenous infusion, 1 h infusion",,clearance,199 mL/h/m²
CCCC[C@H](NC(=O)COCCOCCNC(=O)CN1CCN(CC(=O)O)CCN(CC(=O)O)CC1)C(=O)N[C@H]1CC(=O)NCCCC[C@@H](C(N)=O)NC(=O)[C@H](Cc2c[nH]c3ccccc23)NC(=O)[C@H](CCCNC(=N)N)NC(=O)[C@@H](Cc2ccccc2)NC(=O)[C@H](Cc2c[nH]cn2)NC1=O [copper-64 labelled],,"C57 mice, bone","intravenous, 0.37 MBq, 2 h",,tissue uptake,0.22 ± 0.07 %ID/g
CC(C)C[C@H](NC(=O)C[C@H](O)[C@H](CC(C)C)NC(=O)[C@H](Cc1c[nH]cn1)NC(=O)CNC(=O)[C@@H](NC(=O)[C@H](C)NC(=O)[C@H](Cc1c[nH]c2ccccc12)NC(=O)[C@H](CCC(N)=O)NC(=O)[C@@H](Cc1ccccc1)NC(=O)CCOCCOCCOCCNC(=O)CN1CCN(CC(=O)O)CCN(CC(=O)O)CC1)C(C)C)C(N)=O [gallium-68 labelled],microPET imaging,"mouse PC-3 xenograft, PC-3 tumour","intravenous, 3.7 MBq, 15 min",,maximum tumour uptake,4.96 ± 0.87 %ID/g
C=C1CC[C@H](OCCCNC(=O)CCOCCOCCOCCOCCOCCOCCOCCOCCOCCOCCOCCOCCOCCOCCOCCOCCOCCOCCOCCOCCOCCOCCOCCOCCOCCOCCOCCOCCOCCOCCOCCOCCOCCOCCOCCOCCNC(=O)CCN2C(=O)CC(SC[C@H](NC(=O)[C@H](Cc3ccccc3)NC(=O)[C@H](CC(N)=O)NC(=O)[C@H](Cc3c[nH]cn3)NC(=O)[C@@H](NC(=O)[C@H](CC(=O)O)NC(=O)[C@H](CCC(N)=O)NC(=O)[C@H](CC(C)C)NC(=O)[C@H](CCCCN)NC(=O)[C@H](CCCCN)NC(=O)[C@H](CCCNC(=N)N)NC(=O)[C@H](CC(C)C)NC(=O)[C@H](Cc3c[nH]c4ccccc34)NC(=O)[C@H](CCC(=O)O)NC(=O)[C@@H](NC(=O)[C@H](CCCNC(=N)N)NC(=O)[C@H](CCC(=O)O)NC(=O)[C@H](CCSC)NC(=O)[C@H](CO)NC(=O)[C@H](CC(N)=O)NC(=O)[C@H](CC(C)C)NC(=O)[C@H](Cc3c[nH]cn3)NC(=O)[C@H](CCCCN)NC(=O)CNC(=O)[C@H](CC(C)C)NC(=O)[C@H](CC(N)=O)NC(=O)[C@H](Cc3c[nH]cn3)NC(=O)[C@H](CCSC)NC(=O)[C@H](CC(C)C)NC(=O)[C@H](CCC(N)=O)NC(=O)[C@@H](NC(=O)[C@H](CCC(=O)O)NC(=O)[C@H](CO)NC(=O)[C@@H](NC(=O)[C@@H](N)CO)C(C)C)[C@@H](C)CC)C(C)C)C(C)C)C(N)=O)C2=O)C/C1=C/C=C1\CCC[C@]2(C)[C@@H]([C@H](C)CCCC(C)(C)O)CC[C@@H]12 (stereo partly shown),,Sprague Dawley rat,"subcutaneous, 10 µg/kg daily, 89 days",reference: 1 µg/kg dose,dose-normalized AUC,0.92
CCCC[C@H](NC(=O)CCCCCCCNC(=O)CN1CCN(CC(=O)O)CCN(CC(=O)O)CC1)C(=O)N[C@H]1CC(=O)NCCCC[C@@H](C(N)=O)NC(=O)[C@H](Cc2c[nH]c3ccccc23)NC(=O)[C@H](CCCNC(=N)N)NC(=O)[C@@H](Cc2ccccc2)NC(=O)[C@H](Cc2c[nH]cn2)NC1=O [copper-64 labelled],,"C57 mice, bone","intravenous, 0.37 MBq, 24 h",,tissue uptake,0.08 ± 0.14 %ID/g
COc1cc(/C=C/C(=O)NCCCCCC(=O)N[C@@H](CCCNC(=N)N)C(=O)N[C@@H](CCCNC(=N)N)C(=O)N[C@@H](Cc2c[nH]c3ccccc23)C(=O)N[C@@H](CCC(N)=O)C(=O)N[C@@H](Cc2c[nH]c3ccccc23)C(=O)N[C@@H](CCCNC(=N)N)C(N)=O)ccc1O,"RP-HPLC, C18 column",,,higher is more hydrophobic,retention time,5.5 min
N=C(N)NCCC[C@@H]1NC(=O)[C@H](CCCCNC(=O)CC[C@H](NC(=O)CC[C@H](NC(=O)CN2CCN(CC(=O)O)CCN(CC(=O)O)CCN(CC(=O)O)CC2)C(=O)N[C@@H](CCC(=O)NCCCC[C@@H]2NC(=O)[C@@H](Cc3ccccc3)NC(=O)[C@H](CC(=O)O)NC(=O)CNC(=O)[C@H](CCCNC(=N)N)NC2=O)C(=O)NCCCC[C@@H]2NC(=O)[C@@H](Cc3ccccc3)NC(=O)[C@H](CC(=O)O)NC(=O)CNC(=O)[C@H](CCCNC(=N)N)NC2=O)C(=O)NCCCC[C@@H]2NC(=O)[C@@H](Cc3ccccc3)NC(=O)[C@H](CC(=O)O)NC(=O)CNC(=O)[C@H](CCCNC(=N)N)NC2=O)NC(=O)[C@@H](Cc2ccccc2)NC(=O)[C@H](CC(=O)O)NC(=O)CNC1=O [indium-111 labelled],,"female athymic nu/nu mice, spleen","intravenous, 111 kBq, 1 h",,tissue uptake,2.4 ± 0.51 %ID/g
CC(C)C[C@H](NC(=O)[C@H](CC(C)C)NC(=O)[C@H](CCCNC(=N)N)NC(=O)CCCCCNC(=O)/C=C/c1ccc(O)c(O)c1)C(=O)N[C@@H](CCCNC(=N)N)C(N)=O,"RP-HPLC, C18 column",,,higher is more hydrophobic,retention time,5.1 min
CCCC[C@H](NC(=O)CNC(=O)CNC(=O)CN1CCN(CC(=O)O)CCN(CC(=O)O)CCN(CC(=O)O)CC1)C(=O)N[C@H]1CC(=O)NCCCC[C@@H](C(N)=O)NC(=O)[C@H](Cc2c[nH]c3ccccc23)NC(=O)[C@H](CCCNC(=N)N)NC(=O)[C@@H](Cc2ccccc2)NC(=O)[C@H](Cc2c[nH]cn2)NC1=O [lutetium-177 labelled],,"C57 mouse, female, lung","intravenous, 0.037 MBq, 0.5 h",,tissue uptake,3.15 ± 0.57 %ID/g

# A few entries again:
SMILES,assay,test system,setting,how to read,endpoint,value
CC(=O)N(O)CCCCCNC(=O)CCC(=O)N(O)CCCCCNC(=O)CCC(=O)N(O)CCCCCNC(=S)Nc1ccc(NC(=S)NCCC(=O)N[C@H](CC(=O)O)C(=O)N[C@H](CC(=O)O)C(=O)NCCC(=O)N[C@H](CC(=O)O)C(=O)N[C@H](CC(=O)O)C(=O)NCCC(=O)N[C@H](CC(=O)O)C(=O)N[C@H](CC(=O)O)C(=O)NCCC(=O)N[C@H](CC(=O)O)C(=O)N[C@H](CC(=O)O)C(N)=O)cc1 [zirconium-89 labelled],,"BALB/cJ mice, blood","intravenous, 20 µg",,terminal half-life,31.8 min
